Measurements gathered from unrelated publications.
PIP4K2C: Phosphatidylinositol 5-phosphate 4-kinase type-2 gamma (PIP4K2C, Homo sapiens, UniProt Q8TBX8)
UniProt Q8TBX8, sequence (whole entry, looked up): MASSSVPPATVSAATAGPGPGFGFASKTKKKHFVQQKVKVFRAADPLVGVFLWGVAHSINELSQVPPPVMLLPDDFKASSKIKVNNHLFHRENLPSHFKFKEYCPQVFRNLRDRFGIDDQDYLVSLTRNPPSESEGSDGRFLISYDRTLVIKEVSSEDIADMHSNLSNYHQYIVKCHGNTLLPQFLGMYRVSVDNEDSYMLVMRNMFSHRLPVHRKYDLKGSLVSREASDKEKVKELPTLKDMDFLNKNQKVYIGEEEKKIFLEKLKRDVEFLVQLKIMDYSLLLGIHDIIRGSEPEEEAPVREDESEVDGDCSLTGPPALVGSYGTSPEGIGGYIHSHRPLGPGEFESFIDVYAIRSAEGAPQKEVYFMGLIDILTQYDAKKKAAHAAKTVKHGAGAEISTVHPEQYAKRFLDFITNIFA
GBA2: Beta-glucosidase (GBA2, Homo sapiens, UniProt Q9HCG7)
UniProt Q9HCG7, sequence (whole entry, looked up): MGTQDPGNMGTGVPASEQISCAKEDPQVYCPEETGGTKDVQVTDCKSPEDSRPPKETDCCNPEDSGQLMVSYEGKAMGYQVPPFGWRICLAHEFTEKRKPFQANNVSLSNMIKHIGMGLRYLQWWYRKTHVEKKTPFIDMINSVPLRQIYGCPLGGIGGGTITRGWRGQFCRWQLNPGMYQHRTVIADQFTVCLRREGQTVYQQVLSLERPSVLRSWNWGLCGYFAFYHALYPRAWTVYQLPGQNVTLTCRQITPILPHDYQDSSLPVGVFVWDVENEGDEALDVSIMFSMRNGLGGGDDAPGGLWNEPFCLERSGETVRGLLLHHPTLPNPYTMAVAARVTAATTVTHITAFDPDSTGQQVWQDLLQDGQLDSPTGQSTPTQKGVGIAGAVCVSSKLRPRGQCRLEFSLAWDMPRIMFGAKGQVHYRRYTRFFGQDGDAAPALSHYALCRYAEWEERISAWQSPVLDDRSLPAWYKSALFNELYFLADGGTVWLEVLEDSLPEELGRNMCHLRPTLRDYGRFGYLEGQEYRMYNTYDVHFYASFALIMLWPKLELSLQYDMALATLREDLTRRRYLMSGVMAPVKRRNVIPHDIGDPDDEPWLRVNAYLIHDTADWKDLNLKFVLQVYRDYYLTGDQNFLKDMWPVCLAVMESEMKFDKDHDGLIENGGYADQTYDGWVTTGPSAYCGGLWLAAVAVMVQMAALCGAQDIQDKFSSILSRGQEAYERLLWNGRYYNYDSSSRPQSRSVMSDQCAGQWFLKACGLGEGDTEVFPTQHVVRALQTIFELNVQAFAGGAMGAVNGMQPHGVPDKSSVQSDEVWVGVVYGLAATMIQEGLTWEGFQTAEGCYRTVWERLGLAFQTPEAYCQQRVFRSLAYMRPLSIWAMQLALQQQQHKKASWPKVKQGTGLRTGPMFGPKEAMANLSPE
UniProt Q6PL18, sequence (whole entry, looked up): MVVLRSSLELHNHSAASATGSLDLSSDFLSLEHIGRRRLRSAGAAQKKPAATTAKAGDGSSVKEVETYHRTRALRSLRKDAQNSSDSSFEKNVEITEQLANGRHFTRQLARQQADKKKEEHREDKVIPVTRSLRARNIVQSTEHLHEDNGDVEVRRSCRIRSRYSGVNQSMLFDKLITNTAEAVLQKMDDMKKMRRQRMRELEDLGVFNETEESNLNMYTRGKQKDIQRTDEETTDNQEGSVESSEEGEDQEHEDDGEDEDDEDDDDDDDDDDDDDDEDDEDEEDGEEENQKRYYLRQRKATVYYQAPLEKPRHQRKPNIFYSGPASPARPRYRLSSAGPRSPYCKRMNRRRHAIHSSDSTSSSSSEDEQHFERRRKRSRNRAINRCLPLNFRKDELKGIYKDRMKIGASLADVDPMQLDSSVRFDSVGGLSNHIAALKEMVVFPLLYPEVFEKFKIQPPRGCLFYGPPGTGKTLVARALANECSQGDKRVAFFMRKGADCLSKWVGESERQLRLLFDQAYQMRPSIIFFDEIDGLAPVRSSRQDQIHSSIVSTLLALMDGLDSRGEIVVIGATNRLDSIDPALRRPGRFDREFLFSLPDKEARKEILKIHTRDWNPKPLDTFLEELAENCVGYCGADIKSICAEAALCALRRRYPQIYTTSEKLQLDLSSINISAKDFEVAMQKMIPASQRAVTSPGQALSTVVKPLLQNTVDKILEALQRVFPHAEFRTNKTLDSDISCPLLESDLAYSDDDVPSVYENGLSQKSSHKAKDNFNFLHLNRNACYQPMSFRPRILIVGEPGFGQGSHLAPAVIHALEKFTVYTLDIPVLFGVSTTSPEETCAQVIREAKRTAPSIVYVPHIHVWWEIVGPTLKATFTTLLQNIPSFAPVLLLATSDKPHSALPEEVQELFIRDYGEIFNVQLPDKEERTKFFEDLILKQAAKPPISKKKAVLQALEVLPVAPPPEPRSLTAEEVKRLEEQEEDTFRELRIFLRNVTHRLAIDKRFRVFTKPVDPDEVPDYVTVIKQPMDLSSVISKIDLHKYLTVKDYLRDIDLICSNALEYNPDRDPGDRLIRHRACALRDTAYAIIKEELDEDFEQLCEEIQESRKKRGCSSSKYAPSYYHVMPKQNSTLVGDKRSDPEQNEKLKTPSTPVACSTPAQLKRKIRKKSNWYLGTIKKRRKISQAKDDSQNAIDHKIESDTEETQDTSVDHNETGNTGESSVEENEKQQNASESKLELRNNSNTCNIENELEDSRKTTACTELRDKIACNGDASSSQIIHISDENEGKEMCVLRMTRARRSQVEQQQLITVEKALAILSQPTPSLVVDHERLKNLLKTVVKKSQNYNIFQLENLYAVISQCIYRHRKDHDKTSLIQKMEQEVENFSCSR
UniProt Q9UIF8, sequence (whole entry, looked up): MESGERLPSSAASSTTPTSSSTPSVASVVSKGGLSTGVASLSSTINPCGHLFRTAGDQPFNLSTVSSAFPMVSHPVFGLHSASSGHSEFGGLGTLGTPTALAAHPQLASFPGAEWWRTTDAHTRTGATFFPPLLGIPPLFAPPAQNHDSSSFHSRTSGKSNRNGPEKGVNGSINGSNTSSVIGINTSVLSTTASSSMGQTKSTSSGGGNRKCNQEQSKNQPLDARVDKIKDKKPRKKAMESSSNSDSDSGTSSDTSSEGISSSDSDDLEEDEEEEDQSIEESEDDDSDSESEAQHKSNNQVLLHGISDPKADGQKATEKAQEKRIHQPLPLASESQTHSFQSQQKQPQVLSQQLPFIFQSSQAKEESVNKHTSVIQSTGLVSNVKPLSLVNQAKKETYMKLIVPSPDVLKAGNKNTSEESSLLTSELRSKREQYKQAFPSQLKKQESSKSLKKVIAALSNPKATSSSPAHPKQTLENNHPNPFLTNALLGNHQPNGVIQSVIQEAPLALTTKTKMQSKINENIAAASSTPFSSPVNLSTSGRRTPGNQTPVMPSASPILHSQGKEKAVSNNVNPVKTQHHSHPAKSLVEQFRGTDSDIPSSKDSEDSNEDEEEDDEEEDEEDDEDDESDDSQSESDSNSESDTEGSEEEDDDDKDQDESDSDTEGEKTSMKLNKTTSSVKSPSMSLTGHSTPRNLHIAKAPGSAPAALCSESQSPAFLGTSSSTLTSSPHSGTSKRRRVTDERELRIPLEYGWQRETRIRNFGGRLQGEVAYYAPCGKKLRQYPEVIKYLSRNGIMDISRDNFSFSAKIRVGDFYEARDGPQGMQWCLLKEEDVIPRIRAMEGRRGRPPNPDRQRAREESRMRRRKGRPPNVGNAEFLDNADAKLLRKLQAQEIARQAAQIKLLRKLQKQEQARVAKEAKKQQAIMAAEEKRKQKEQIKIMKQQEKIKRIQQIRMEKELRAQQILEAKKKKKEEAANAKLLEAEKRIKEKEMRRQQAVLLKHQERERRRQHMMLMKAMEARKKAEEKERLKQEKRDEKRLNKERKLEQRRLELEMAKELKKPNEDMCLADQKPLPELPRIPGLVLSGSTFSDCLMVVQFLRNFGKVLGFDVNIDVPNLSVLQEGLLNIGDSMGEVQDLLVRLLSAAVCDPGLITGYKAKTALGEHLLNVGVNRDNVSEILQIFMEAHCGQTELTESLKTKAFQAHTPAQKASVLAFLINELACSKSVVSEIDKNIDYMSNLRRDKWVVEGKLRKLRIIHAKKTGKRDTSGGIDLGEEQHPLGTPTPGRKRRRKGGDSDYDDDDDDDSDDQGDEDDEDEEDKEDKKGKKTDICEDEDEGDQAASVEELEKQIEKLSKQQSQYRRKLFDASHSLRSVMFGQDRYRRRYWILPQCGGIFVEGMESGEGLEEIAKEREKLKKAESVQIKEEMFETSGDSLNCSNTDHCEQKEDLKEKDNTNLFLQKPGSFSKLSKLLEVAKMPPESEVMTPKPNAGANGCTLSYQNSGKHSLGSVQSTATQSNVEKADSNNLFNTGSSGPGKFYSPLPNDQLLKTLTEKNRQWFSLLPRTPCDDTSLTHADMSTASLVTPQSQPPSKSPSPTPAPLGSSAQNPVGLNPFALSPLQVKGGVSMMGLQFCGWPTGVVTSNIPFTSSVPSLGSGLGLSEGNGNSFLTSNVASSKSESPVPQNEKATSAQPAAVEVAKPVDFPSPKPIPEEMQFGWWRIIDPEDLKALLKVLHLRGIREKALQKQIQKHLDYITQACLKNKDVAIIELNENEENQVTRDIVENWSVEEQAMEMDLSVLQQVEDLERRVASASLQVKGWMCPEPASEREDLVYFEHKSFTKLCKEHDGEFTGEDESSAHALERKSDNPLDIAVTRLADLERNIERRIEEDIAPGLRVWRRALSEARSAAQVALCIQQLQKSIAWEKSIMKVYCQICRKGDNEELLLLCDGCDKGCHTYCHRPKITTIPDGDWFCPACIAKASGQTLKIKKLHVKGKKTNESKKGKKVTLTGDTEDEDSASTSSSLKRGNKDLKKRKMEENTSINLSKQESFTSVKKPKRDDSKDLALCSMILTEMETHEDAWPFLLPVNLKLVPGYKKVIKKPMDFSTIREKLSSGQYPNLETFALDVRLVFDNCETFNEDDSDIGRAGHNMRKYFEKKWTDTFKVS

| SMILES | target or system | assay | system | setting | scale | measurement | value |
| --- | --- | --- | --- | --- | --- | --- | --- |
| CC(=O)N1c2ccc(-c3ccc(CNC(=O)c4cn5cc(-c6cnc(N)nc6)nc(N6CCOCC6)c5n4)cc3)cc2CC[C@@H]1C | Bromodomain adjacent to zinc finger domain protein 2B, bromodomain (BAZ2B, Homo sapiens, UniProt Q9UIF8) | binding, competition with immobilised ligand | – | 10 µM | – | remaining binding | 75% |
| C=CC(=O)N1CCCC(n2c(=O)c3ncccc3n(Cc3ccc(Oc4ccccc4)cc3)c2=O)C1 (stereo not shown) | Tyrosine-protein kinase ABL1, non-phosphorylated (ABL1, Homo sapiens, UniProt P00519, T315I) | cell-free assay, competition with immobilised ligand | – | 1 µM | – | remaining binding | 65% |
| Cn1cc(-c2cc(N3CCCCS3(=O)=O)ccc2N[C@H]2CC[C@H](C)CC2)c2cc[nH]c2c1=O (stereo in doubt) | ATPase family AAA domain-containing protein 2 (ATAD2, Homo sapiens, UniProt Q6PL18) | binding, competition with immobilised ligand | – | 1 µM | – | remaining binding | 100% |
| Nc1ncc2c(n1)-c1c([nH]c3ccc(C4=CCOCC4)cc13)CCC2 | PIP4K2C | binding, competition with immobilised ligand | – | 1 µM | – | remaining binding | 1.7% |
| Cc1cnc2nc1Nc1cccc(c1)COC/C=C/COCc1cc(ccc1OCCN1CCOCC1)N2 | Tyrosine-protein kinase JAK2 (JAK2, Homo sapiens, UniProt O60674) | kinase binding panel | – | concentration not given | – | remaining binding | 8% |
| COC1CN([C@H]2CC[C@H]([C@@]3(C)Oc4c(Cl)cc(C(=O)NCc5c(SC)cc(C)[nH]c5=O)c(C)c4O3)CC2)C1 | – | RNA-seq, item: DZIP1 mouse homolog | mouse, HT-1376 xenograft, whole blood | dose not given | baseline: vehicle | log2 fold change | 1.17 |
| COc1cc(Nc2nccc(-c3cnn4nc(OC)ccc34)n2)cc(C(F)(F)F)c1 | Proto-oncogene tyrosine-protein kinase receptor Ret (RET, Homo sapiens, UniProt P07949, M918T) | binding, competition with immobilised ligand | – | 1 µM | – | remaining binding | 100% |
| Cn1cc(-c2ccc3[nH]c4c(c3c2)-c2nc(N)ncc2CC4)cn1 | PIP4K2C | binding, competition with immobilised ligand | – | 1 µM | – | remaining binding | 0.3% |
| OC[C@H]1[C@@H](O)[C@H](O)[C@@H](O)CN1CCCCCOCCC12CC3CC(CC(C3)C1)C2 | GBA2 | inhibitor, 4MU-β-D-glucopyranoside | HEK293T homogenates overexpressing GBA2 | – | baseline: GBA1 IC50 over GBA2 IC50 | selectivity ratio | 333 |
| Cc1cc(NC(=O)[C@H](O)c2cc(F)cc(F)c2)ccc1-c1cnc(N)c(C(=O)NC(C)C)c1 | Mitogen-activated protein kinase kinase kinase 19 (MAP3K19, Homo sapiens, UniProt Q56UN5) | binding, competition with immobilised ligand | – | 1 µM | – | remaining binding | 65% |
| COc1cccc(-c2ccc(COCCCCCN3C[C@H](O)[C@@H](O)[C@H](O)[C@H]3CO)cc2)c1 | GBA2 | inhibitor, 4MU-β-D-glucopyranoside | HEK293T homogenates overexpressing GBA2 | – | baseline: GBA1 IC50 over GBA2 IC50 | selectivity ratio | 125 |
| CNC1C[S+]2CC[S+]3CC[S+](C1)[Ru-4]321([N]=C=S)[n]2c3ccc(OC)cc3c3c4c(c5cc(F)c[n+]1c5c32)C(=O)NC4=O (stereo not shown) | Tyrosine-protein kinase ABL1, phosphorylated (ABL1, Homo sapiens, UniProt P00519, T315I) | KinomeScan | – | 0.1 µM | baseline: untreated | remaining binding | 100% |
| Cc1nn(-c2cccc(N)c2)c(=O)c2cnc(Nc3ccc(N4CCNCC4)cc3)nc12 | Serine/threonine-protein kinase PAK 3 (PAK3, Homo sapiens, UniProt O75914) | enzyme activity, inhibitor | – | – | – | IC50 | 3.74 µM |

Some of these lines once more:
| SMILES | target or system | assay | system | setting | scale | measurement | value |
| --- | --- | --- | --- | --- | --- | --- | --- |
| COC1CN([C@H]2CC[C@H]([C@@]3(C)Oc4c(Cl)cc(C(=O)NCc5c(SC)cc(C)[nH]c5=O)c(C)c4O3)CC2)C1 | – | RNA-seq, item: DZIP1 mouse homolog | mouse, HT-1376 xenograft, whole blood | dose not given | baseline: vehicle | log2 fold change | 1.17 |
